# Experimental data gathered from unrelated publications.
# Compare with care: the assays were run in different laboratories.
# Observed: cell growth or viability
Structure (SMILES),cell line,method,tested at,time,notes,endpoint,value
CC(=NNC(=S)Nc1ccccc1)c1ccc(Nc2nnc(-c3ccc(Cl)cc3)c3ccccc23)cc1,HepG2,MTT,0.312 µM,24 h,,viability,99.1%
NC(=O)c1ccc(Nc2nccc(NC3CCCCC3)n2)cc1,BJ,ATP luminescence,,72 h,,EC50,> 13 µM
O=C(Nc1ccc(Oc2nnc(-c3ccc(Cl)cc3)c3ccccc23)cc1)c1ccccc1,HepG2,MTT,0.156 µM,24 h,,viability,54.4%
c1cc(Nc2nccc(NC3CCCCC3)n2)cc(-n2ccnc2)c1,BJ,ATP luminescence,,72 h,,EC50,> 8 µM
CCC(=CCc1c(O)cc2c(c1O)C(=O)C[C@@H](c1ccc(O)cc1)O2)CC,HeLa,MTT,0.781 µM,48 h,,inhibition,-3.76%
c1cncc(-c2ccc(Nc3nccc(NC4CCCCC4)n3)cc2)c1,BJ,ATP luminescence,,72 h,,EC50,> 13 µM
COc1ccc(NC(=O)c2c(Nc3ccccc3)sc(C(=O)NN=Cc3ccccc3)c2NC(C)=O)cc1,HCT-116,SRB,0.1 µM,48 h,,viability,87.1%
O=C(Nc1ccccc1)Nc1ccc(Oc2nnc(-c3ccc(Cl)cc3)c3ccccc23)cc1,HepG2,MTT,0.156 µM,24 h,,viability,18.7%
CC(C)Nc1ccnc(Nc2cccc(-c3cc[nH]n3)c2)n1,BJ,ATP luminescence,,72 h,,EC50,> 36 µM
CCCCC(=O)Nc1ccc(-c2cnc3ncn(CCC)c(=O)c3c2)cn1,NCI-H1975,CCK-8,,72 h,,IC50,2.72 µM
CC(=NNC(=O)c1ccncc1)c1ccc(Nc2nnc(-c3ccc(Cl)cc3)c3ccccc23)cc1,HepG2,MTT,1.25 µM,,,cell death,94.7%
CC(C)Nc1ccnc(Nc2cccc(-c3ccccn3)c2)n1,BJ,ATP luminescence,,72 h,,EC50,> 13 µM
CNCCC(=O)Nc1ccccc1/N=c1\cc(-c2ccc3nc(N)oc3c2)oc2ccccc12,MDA-MB-231,CCK-8,1 µM,,,inhibition,69.5%
CC(=NNC(=O)c1ccccc1Cl)c1ccc(Nc2nnc(-c3ccc(Cl)cc3)c3ccccc23)cc1,HepG2,MTT,5 µM,,,cell death,96.5%
CCCn1cnc2ccc(-c3ccc(NC(=O)CNCC)nc3)cc2c1=O,HCC827,CCK-8,,72 h,,IC50,2.55 µM
CC(=O)Nc1ccc(Oc2nnc(-c3ccc(Cl)cc3)c3ccccc23)cc1,HepG2,MTT,0.156 µM,,,cell death,16.1%
CCCCn1cnc2ccc(-c3ccc(NC(=O)Nc4ccc(OC)cc4)nc3)cc2c1=O,HCC827,CCK-8,,72 h,,IC50,1.12 µM
CC(=NNC(=O)c1cccnc1)c1ccc(Nc2nnc(-c3ccc(Cl)cc3)c3ccccc23)cc1,HepG2,MTT,0.625 µM,,,cell death,50.1%
COCCC(=O)Nc1ccccc1/N=c1\cc(-c2ccc3nc(N)oc3c2)oc2ccccc12,MDA-MB-231,CCK-8,1 µM,,,inhibition,-8.52%
CCCCn1cnc2ccc(-c3ccc(NC(=O)Nc4ccc(F)cc4)nc3)cc2c1=O,HCC827,CCK-8,,72 h,,IC50,6.12 µM
c1cncc(-c2cccc(Oc3nccc(NC4CCCCC4)n3)c2)c1,BJ,ATP luminescence,,72 h,,EC50,> 14 µM
CC#CCn1cnc2ccc(-c3ccc(NC(=O)CCCC)nc3)cc2c1=O,NCI-H1975,CCK-8,,72 h,,IC50,> 10 µM
CC(C)Nc1ccnc(Nc2cccc(-c3ccncc3)c2)n1,BJ,ATP luminescence,,72 h,,EC50,> 16 µM
CCCCn1cnc2ccc(-c3ccc(NC(=O)C4CCCC4)nc3)cc2c1=O,NCI-H1975,CCK-8,,72 h,,IC50,3.71 µM
CC(C)Nc1ccnc(Nc2cccc(-c3cnccn3)c2)n1,BJ,ATP luminescence,,72 h,,EC50,> 18 µM
CCCCn1cnc2ccc(-c3ccc(NC(=O)Nc4ccc(C)cc4)nc3)cc2c1=O,NCI-H1975,CCK-8,,72 h,,IC50,> 10 µM
COc1ccc(NC(=O)c2c(Nc3ccccc3)sc(C#N)c2NC(=O)CNc2ccccc2[N+](=O)[O-])cc1,HCT-116,SRB,0.1 µM,48 h,,viability,83.9%
CCCCCC(=O)Nc1ccc(-c2ccc3ncn(Cc4ccccc4)c(=O)c3c2)cn1,HCC827,CCK-8,,72 h,,IC50,> 10 µM
C=C(F)C(=O)N1CCN(c2nc(OC[C@@H]3CCCN3C)nc3c2CCN(c2cccc4cccc(Cl)c24)C3)C[C@@H]1CC#N,ASPC1,ATP luminescence,,,3D culture,IC50,> 1 µM

# Excerpt of the above:
Structure (SMILES),cell line,method,tested at,time,notes,endpoint,value
c1cc(Nc2nccc(NC3CCCCC3)n2)cc(-n2ccnc2)c1,BJ,ATP luminescence,,72 h,,EC50,> 8 µM
CC(C)Nc1ccnc(Nc2cccc(-c3cnccn3)c2)n1,BJ,ATP luminescence,,72 h,,EC50,> 18 µM
